Results pooled from the literature.
Each numbered part is a random draw from the data of one study; scales do not carry over between parts. Positions count from the first letter of the parent shown.

Set 1 — technique: RNA Bind-n-Seq; form: RNA; sample: in vitro; tested at: 365 nM; reference: no-protein control; reading: higher = stronger binding
Target: RNA binding protein fox-1 homolog 2, RRM domain, GST-SBP tag (RBFOX2, Homo sapiens, UniProt O43251-10, residues 100-194)
Setting: natural RNA segment, single round, ends assumed
Shared flanks, not repeated: GGGAGUUCUACAGUCCGACGAUC … UGGAAUUCUCGGGUGCCAA
Construct (chain): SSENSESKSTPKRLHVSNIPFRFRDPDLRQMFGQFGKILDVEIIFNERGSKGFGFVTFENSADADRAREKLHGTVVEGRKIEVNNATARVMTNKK
Sequence	RBNS enrichment (R)
CAUCGUACCUUCAGUUUAGGCUGUUUUCAUGACCUCACAUCUGUGUAGCACAAAGGGUGUUAUCUUCCUAUAGCAGAUCAACAGUGGCAGCUCACAGUACCAGCCAGCUU	0.282
UUGAAAUGUUCUGUCAAAUGUGUCUCACAUCUACACGUGGCUUGGAGGCUUUUAUGGGGCCCUGUCCAGGUAGAAAAGAAAUGGUAUGUAGAGCUUAGAUUUCCCUAUUG	0.385
UGGCUCGCUCUGGACCCUGCUCUCCCCAGCCACGUUCUGUAGUCUGUUGUACAUCUCAGGAACCCUCGGUUCCUCCACGGAUGGACGACUGCAGAAUAGAGCAGAAUAGA	0.177
AAACCAAAGACACCAAAUCUAGGUGAUCACUGAAGCAACGCAACCGCUUCCACCACCAUGGUGUUUGUUUCUAGAACUUUUGCCAGUCCUUGAAGAAUGGGUUCUGUGUC	0.347
GACUUCUCAUGACCAGAGGGCUCUGCACCAGCAUCCCCAAAGAGCCAAGAAGGCCACCAUGCUUUUACUGUCCAGACCAAAAUGUUGCUCUCAAUCCCCAACAUUUGAUA	0.549
CUUUGUCGGCGCUGAGGAACACUGCUUUUUCACAAAGUUCCCCCGGGAUAGAAUGGCUGUCCAGUCUAAGCUCAGGGCAGCCUCUUCAACCACUGUUGGCCCAGCCUGGC	0.192
AAGCCUGAAGAGAAGUGAUCUUAGAGAAAGCAGAGAACAGAAUGGACUGGAUAGACAUCUUGACUCUAUUCAGCCCGUAGUCUGUGAUCUGGAGAGUCCAGUUAAGGUAA	0.337
UAAGGAGUUUCUCAGACAAAUUGAAAAUUCUAUAUGUUUUGAGGAAAUAAGGGGAAGCUUUAGAGUUUAAUAGGAUAUUCAAAACUAUAAAAGAAUAUCAUCUUAAAAAA	0.752

Set 2 — technique: protein-binding microarray; form: double-stranded DNA, one strand shown; sample: in vitro; tested at: 250 nM; setting: 60-bp whole probe; with: salmon DNA 0.4 mg/ml; reference: random background probes; reading: higher = stronger binding; shared flanks, not repeated: GCCTAGCAC … GTCTTGATTCGCTTGACGCTGCTG
Target: Interferon regulatory factor 7, full length, phosphomimetic (IRF7, Homo sapiens, UniProt Q92985, residues 1-503, S101K/S471D/S472D/S475D/S476D/S477D/S483D/S484D/S487D)
Residues (chain): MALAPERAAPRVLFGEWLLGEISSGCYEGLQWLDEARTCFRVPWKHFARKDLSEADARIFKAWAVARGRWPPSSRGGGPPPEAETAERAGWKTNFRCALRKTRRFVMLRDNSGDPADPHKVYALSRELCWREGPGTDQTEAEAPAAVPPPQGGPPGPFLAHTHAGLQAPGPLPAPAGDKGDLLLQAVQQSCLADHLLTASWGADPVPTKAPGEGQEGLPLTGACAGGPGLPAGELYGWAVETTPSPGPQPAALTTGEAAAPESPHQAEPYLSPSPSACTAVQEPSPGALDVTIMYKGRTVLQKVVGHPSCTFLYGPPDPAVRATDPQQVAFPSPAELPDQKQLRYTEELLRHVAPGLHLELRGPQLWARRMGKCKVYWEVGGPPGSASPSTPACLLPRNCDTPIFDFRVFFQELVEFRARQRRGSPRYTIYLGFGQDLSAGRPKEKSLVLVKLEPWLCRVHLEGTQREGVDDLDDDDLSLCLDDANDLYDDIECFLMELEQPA
Sequence	log fluorescence
TTAGGTATCGACTTCCGGTTAGTGCTA	2.14 z-score
CCCTGTCTGTCCAGAAACCCGTGCTAG	0.0513 z-score
TTAGATATCTGTATCGATTAGTGCTAG	0.204 z-score
GGATGAGTCACTTCTGGTGCTGTGCTA	-0.964 z-score
ATAGGTATCGGGTTTCGGTTAGTGCTA	7.52 z-score
TCAGGTTTCGGGTATCGGTTAGTGCTA	8.02 z-score
TTAGGTATCCCTCTCCTTTAGTGCTAG	-0.0916 z-score
TTAGATATCGAGTTTCGATTAGTGCTA	7.24 z-score
TTAGGTTTCGGGTATCTGTTAGTGCTA	7.07 z-score
TTAGGTATCGACACTAGGTTAGTGCTA	-0.22 z-score
GATGGTTTCGACTATCGGGACGTGCTA	6.52 z-score
GACGATTTCGGGACTGGCGACGTGCTA	-0.0722 z-score
TTAGGCATCCTTATCCTTTAGTGCTAG	-0.392 z-score
TCAGCTTTCCTTTGCTTACTGTGCTAG	0.53 z-score
TTAGCTCTCGGTATCGGTTAGTGCTAG	0.965 z-score
GACGGTTGCGGGACTGGGGACGTGCTA	-0.413 z-score
GACGATTGCAGTATCGAGACGTGCTAG	-0.0344 z-score
TCAACTCCAGTTCTGGGACTGTGCTAG	-0.43 z-score
AAACAAGTCAATGGCCTTTCGTGCTAG	-0.409 z-score

Set 3 — technique: protein binding microarray; form: double-stranded DNA, one strand shown; sample: in vitro; tested at: not given; reference: not given; reading: higher = stronger binding
Target: Histone acetyltransferase KAT6A, winged helix 2, GST fusion (KAT6A, Homo sapiens, UniProt Q92794, residues 85-181)
Setting: 8-mer, flanks averaged, mean of 2 arrays, mostly near background
Target sequence (chain): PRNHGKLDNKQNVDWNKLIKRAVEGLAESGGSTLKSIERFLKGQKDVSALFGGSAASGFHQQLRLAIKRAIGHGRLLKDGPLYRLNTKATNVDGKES
Sequence	E-score
CAACGCCC	0.00664
GCGGCCGC	0.238
TATCATCA	0.0873
CGGTAGGC	-0.00881
AGGGCGCG	0.215
AAATGGGC	-0.0449
CTCTTCAG	-0.00063
AGCACATC	-0.0617
GACAGGAC	0.0864
GTAAATTA	-0.196
CCGGTATC	0.00186
AATCAAAT	-0.116
CACTGAGC	0.031
CCACGAAG	0.129
ACATCCAA	0.0517
CGGAGGCC	0.0468
TAATACAA	0.105
GCGCGCTA	0.0806
CAACGGGC	0.0796

Set 4 — technique: RNA Bind-n-Seq; form: RNA; sample: in vitro; tested at: 1 µM; setting: whole 134-nt RNA, ends assumed; with: 150 mM KCl; reference: input library; reading: higher = stronger binding
Target: Ras GTPase-activating protein-binding protein 1, C-terminal RGG region (G3BP1, Homo sapiens, UniProt Q13283)
Chain of UniProt Q13283 (whole entry, looked up): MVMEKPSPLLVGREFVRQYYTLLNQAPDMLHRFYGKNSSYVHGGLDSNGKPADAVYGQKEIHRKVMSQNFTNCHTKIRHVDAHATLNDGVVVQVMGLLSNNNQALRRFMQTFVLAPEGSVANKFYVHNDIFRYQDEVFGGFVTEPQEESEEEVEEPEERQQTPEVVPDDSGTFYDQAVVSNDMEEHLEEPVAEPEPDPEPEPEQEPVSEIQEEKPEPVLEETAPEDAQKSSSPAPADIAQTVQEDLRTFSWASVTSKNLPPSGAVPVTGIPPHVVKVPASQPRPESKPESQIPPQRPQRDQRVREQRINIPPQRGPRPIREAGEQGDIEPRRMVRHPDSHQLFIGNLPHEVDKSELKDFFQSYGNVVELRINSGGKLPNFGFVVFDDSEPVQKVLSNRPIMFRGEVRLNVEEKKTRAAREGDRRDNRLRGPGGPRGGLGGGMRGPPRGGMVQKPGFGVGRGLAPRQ
Shared flanks, not repeated: GGGAGUUCUACAGUCCGACGAUC … UGGAAUUCUCGGGUGUCAAGG
Sequence	log2 enrichment
GUCCUGUGCUACACAUCGUAUGUACCGAAUCGGCCCCCGGGCCCCCGGGGCCCCCGGGGAAAGUAUUAUGUUACGCCGUUCGGAUCUGCA	-1.84
CAAGUCCUGUGCUACACAUCGUAUGUACCGAAUCGGAAAAAAAGGUGGUUUUUGGAAAGUAUUAUGUUACGCCGUUCGGAUCUGCACUUC	-1.78
CCUGUGCUACACAUCGUAUGUACCGAAUCGGAAAAAAAGGAAAAAAAGGGAAAAAAAGGGGAAAGUAUUAUGUUACGCCGUUCGGAUCUG	-1.72
UUUCAAAGCCAAAGGGCCUUGUGACGCCCCUCUUGCCCACCUCCCUCCACACCGUGUCCUCCCCUAUAUGACAAUCAAUGUGACCUCUCU	0.267
AGUCCUGUGCUACACAUCGUAUGUACCGAAUCGGGGCCCCGGGCCCCGGCCCCGGGGAAAGUAUUAUGUUACGCCGUUCGGAUCUGCACU	-2.21
UCUCUCUCUUUCCCUCUAGGGUCACAUCUCCCAGGAAGAUCUCACUUCCCCACAGAAGCUCUUGGCCUGGCCUCCUGCAGUGCCACGCUC	0.708
UGACUUUAGGAGAUACCUUAACUCGACGUUCCAUUAGCCAGCAGAAGUCCGGAGUUUCCAUUACCAUUGAUGACCCAGUCCGAACUGCCC	-0.615

Set 5 — target: CCNB3, cyclin fold, Cln2 fusion (human); technique: yeast growth competition, sequencing; sample: yeast; setting: weak parent motif; reference: not given; reading: higher = stronger binding
Starting sequence: CENPC docking peptide (human); VKTKKRLNFDDKV
Variant	normalised enrichment score
K5R	1.12
N8A	0.691
K2A	0.339
R6A	0.0442
D10A	-0.141
K4A	0.156
T3A	1.01

Other studies, line by line
Substance	tested on	test	test system	setting	how to read	endpoint	value
SRSF3 (Homo sapiens, UniProt P84103)	SRSF7 (Homo sapiens, UniProt Q16629)	cross-linking MS	–	hits only	–	interaction screen	cross-linked
PhoQ, residues 284 288 289 292 302 303 GASLAW	PhoP, residues 12 14 15 18 19 TQAIL (Escherichia coli, UniProt P23836)	Sort-seq, measured: YFP reporter	E. coli	PhoQ-PhoP variant library, with: 10 µM Mg2+	reference: high Mg2+ state, higher = stronger signaling	fold induction	2.88
HAT1 (Homo sapiens, UniProt O14929)	MCM3 (Homo sapiens, UniProt P25205)	cross-linking MS	cell fractions	with: DSSO	–	cross-linked residues	K366 to K270
